Assay results from different studies.
Lines come from different studies, so protocols differ. ± marks the error that the study gave.

Substance | tested on | assay | test system | setting | endpoint | value
O=C(Nc1cc(C(F)(F)F)ccc1N1CCCCC1)c1ccncc1 | Replicase polyprotein 1ab, main protease (rep, Severe acute respiratory syndrome coronavirus 2, UniProt P0DTD1) | reporter gene (Gaussia luciferase), inhibitor |  | 20 µM | inhibition | 3%
SVLYNSASFSTFKCY | human CD4 T cells | AIM | peptide |  | responding donors | 8%
Nc1ncnc2c([C@@H]3N[C@H](CO)[C@@H](O)[C@H]3O)c[nH]c12 | Junin virus | viral replication | HeLa, Romero | 6.3 µM | inhibition | 17.1%
PRPPLNRNYVFTGYR | human CD4 T cells | AIM | peptide |  | responding donors | 8%
CC[C@H](C)[C@H](NC(=O)[C@H](CC(C)C)NC(=O)[C@H](Cc1c[nH]c2ccccc12)NC(=O)[C@H](CCC(N)=O)NC(=O)[C@@H](NC(=O)[C@H](Cc1ccccc1)NC(=O)[C@H](C)NC(=O)[C@H](CCCCNC(=O)COCCOCCNC(=O)COCCOCCNC(=O)CC[C@H](NC(=O)CCCCCCCCCCCCCCCCCCC(=O)O)C(=O)O)NC(=O)[C@H](CCC(N)=O)NC(=O)[C@H](C)NC(=O)[C@@H](NC(=O)[C@H](CCCCN)NC(=O)[C@H](CC(=O)O)NC(=O)[C@H](CC(C)C)NC(=O)C(C)(C)NC(=O)[C@@H](NC(=O)[C@H](CO)NC(=O)[C@H](Cc1ccc(O)cc1)NC(=O)[C@H](CC(=O)O)NC(=O)[C@H](CO)NC(=O)[C@@H](NC(=O)[C@H](Cc1ccccc1)NC(=O)[C@@H](NC(=O)CNC(=O)[C@H](CCC(=O)O)NC(=O)C(C)(C)NC(=O)[C@@H](N)Cc1ccc(O)cc1)[C@@H](C)O)[C@@H](C)O)[C@@H](C)CC)[C@@H](C)CC)C(C)C)C(=O)N[C@@H](C)C(=O)NCC(=O)NCC(=O)N1CCC[C@H]1C(=O)N[C@@H](CO)C(=O)N[C@@H](CO)C(=O)NCC(=O)N[C@@H](C)C(=O)N1CCC[C@H]1C(=O)N1CCC[C@H]1C(=O)N1CCC[C@H]1C(=O)N[C@@H](CO)C(N)=O |  |  | patients with type 2 diabetes, serum | 5 mg, baseline, proof of concept | serum ALT | 21 ± 14 U/L

A few entries again:
Substance | tested on | assay | test system | setting | endpoint | value
Nc1ncnc2c([C@@H]3N[C@H](CO)[C@@H](O)[C@H]3O)c[nH]c12 | Junin virus | viral replication | HeLa, Romero | 6.3 µM | inhibition | 17.1%
